Assay results from different studies.
Lines come from different studies, so protocols differ.

| Molecule | target or system | test | test system | setting | scale | endpoint | result |
| --- | --- | --- | --- | --- | --- | --- | --- |
| CC[C@H](C)[C@H](NC(=O)[C@H](CC(C)C)NC(=O)[C@H](Cc1c[nH]c2ccccc12)NC(=O)[C@H](CCC(N)=O)NC(=O)[C@@H](NC(=O)[C@H](Cc1ccccc1)NC(=O)[C@H](C)NC(=O)[C@H](CCCCNC(=O)COCCOCCNC(=O)COCCOCCNC(=O)CC[C@H](NC(=O)CCCCCCCCCCCCCCCCCCC(=O)O)C(=O)O)NC(=O)[C@H](CCC(N)=O)NC(=O)[C@H](C)NC(=O)[C@@H](NC(=O)[C@H](CCCCN)NC(=O)[C@H](CC(=O)O)NC(=O)[C@H](CC(C)C)NC(=O)C(C)(C)NC(=O)[C@@H](NC(=O)[C@H](CO)NC(=O)[C@H](Cc1ccc(O)cc1)NC(=O)[C@H](CC(=O)O)NC(=O)[C@H](CO)NC(=O)[C@@H](NC(=O)[C@H](Cc1ccccc1)NC(=O)[C@@H](NC(=O)CNC(=O)[C@H](CCC(=O)O)NC(=O)C(C)(C)NC(=O)[C@@H](N)Cc1ccc(O)cc1)[C@@H](C)O)[C@@H](C)O)[C@@H](C)CC)[C@@H](C)CC)C(C)C)C(=O)N[C@@H](C)C(=O)NCC(=O)NCC(=O)N1CCC[C@H]1C(=O)N[C@@H](CO)C(=O)N[C@@H](CO)C(=O)NCC(=O)N[C@@H](C)C(=O)N1CCC[C@H]1C(=O)N1CCC[C@H]1C(=O)N1CCC[C@H]1C(=O)N[C@@H](CO)C(N)=O |  |  | healthy human | 8.0 mg, single ascending dose |  | acute pancreatitis | 0% |
| GTRNPANNA |  | AIM | peptide, CD8+ T cells from PBMC, human donors | HLA-A*30:01 restricted, unit not given | baseline: positive over tested donors | frequency of responding donors | 50 |
| N[C@@H](CCCCNC(=O)OCc1ccc([N+](=O)[O-])cc1)C(=O)N1CCCC1 | Replicase polyprotein 1ab, main protease (rep, Severe acute respiratory syndrome coronavirus 2, UniProt P0DTD1) | viral replication, Gluc reporter | SARS-CoV-2 | 20 µM |  | inhibition | -0.432% |
| TPPIKDFGGFNFSQI | human CD4 T cells | AIM | peptide |  |  | responding donors | 8% |
| Nc1ncnc2c([C@@H]3N[C@H](CO)[C@@H](O)[C@H]3O)c[nH]c12 | Zaire ebolavirus | antibody staining | HeLa, Kikwit | 3.1 µM |  | antigen-positive cells | 49.9% |

For quick reference, copied from above:
| Molecule | target or system | test | test system | setting | scale | endpoint | result |
| --- | --- | --- | --- | --- | --- | --- | --- |
| GTRNPANNA |  | AIM | peptide, CD8+ T cells from PBMC, human donors | HLA-A*30:01 restricted, unit not given | baseline: positive over tested donors | frequency of responding donors | 50 |
